Measurements pooled from the literature.
Numbered parts are unrelated; each lists some results of a single study.

Series 1 — method: competition protein-binding microarray; form: double-stranded DNA, one strand shown; medium: in vitro; tested at: 2 µM; with: Cbf1 competitor, 0.05 µM; reading: higher = stronger binding; shared flanks, not repeated: … GTCTTGATTCGCTTGACGCTGCTG
Target: Phosphate system positive regulatory protein PHO4, full length, GST-tagged (PHO4, Saccharomyces cerevisiae, UniProt P07270, residues 1-312)
Notes: whole 60-bp probe, lowest competitor level
Construct (chain): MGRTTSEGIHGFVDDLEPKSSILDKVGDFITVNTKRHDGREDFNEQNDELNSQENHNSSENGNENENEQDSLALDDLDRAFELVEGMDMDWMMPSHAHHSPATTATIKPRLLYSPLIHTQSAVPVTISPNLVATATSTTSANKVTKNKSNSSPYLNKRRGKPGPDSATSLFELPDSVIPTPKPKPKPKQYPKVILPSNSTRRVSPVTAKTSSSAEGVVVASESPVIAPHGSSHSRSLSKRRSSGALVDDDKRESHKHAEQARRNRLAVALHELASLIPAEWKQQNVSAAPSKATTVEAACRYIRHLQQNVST
Oligonucleotide	fluorescence intensity [a.u.]
CTTCTGTAAATTTTTCACGTGCCCTGACGCGCCCCG	13300
CGGGGTTAAGTTTTTCACGTGAGGTGCTTGCAGCAG	8950
CATGTTATCTAGCATCACCTGCCCATCATTTATCTG	6590
CGTCCTAGTGATTTTCACGTGCATTCCATGAGGAAG	12600
TGCGCAACAACTTTTCACGTGAACTTATGTCTAGAA	9450
TCAGGAATATGAAGGCAGGTGAAATGAAACCAGTCA	3430
TGCAGTTTTCTTTCACACGTTCGAAAGCCCCTTTGA	8890
CATACCCAACCTTGAATTGTGGGTGAAGATATTTGT	4530
ATCTAGCTCTGCACACATGTGACGGAACGAAGCATC	11300
AATTCCTTATGCGGGCCCGGTCAGAACGGATTATAG	3630
ATGGGCCACTCTTTTCACGTGAAGCGCTCCAGGAAA	8790
TTGCGCAGGGCGAGCCAGATGAACGCTCTAGTCGTC	2710
AAAGCGGTAATTTGCTCTGTGGGTGCAGATATCTAT	4070
GATTGCTCTCAAAATCTCGTGGGTACCCGTCGTTGA	9640
AATGGGTATGGCAGCACCGTGATGGAACAACCATTT	6660
GGTGTCCATCCCCGTCACATGGTGCAGTACTTCCTT	10200
AGAATAGTTACGGATCAGGTGATGAGACGATAAAAA	3780
CCTCGGCGCTCCAACCACGTGCTGTTTATTACTCTG	21800
CTTCTGTAAATTTCCCACGTGTTTTGACGCGCCCCG	17800

Series 2 — target: UBE2I UBC core domain (UniProt P63279); method: yeast two-hybrid; medium: yeast; notes: mostly zero background; relative to: not given; reading: higher = stronger interaction
B1: TRIM28 RING domain (UniProt Q13263); chain GAEALELLEHCGVCRERLRPEREPRLLPCLHSACSACLGPAAPAAANSSGDGGAAGDGTVVDCPVCKQQCFSKDIVE
B2: PJA2 RING domain (UniProt O43164); chain DHTAIGQEQCCPICCSEYIKDDIATELPCHHFFHKPCVSIWLQKSGTCPVCRRHFPPAVIEA
B3: RNF32 RING domain (UniProt Q9H0A6); chain VQALRRETHECSICLAPLSAAGGQRVGAGRRSREMALLSCSHVFHHACLLALEEFSVGDRPPFHACPLCRSCYQKKILEC
B4: RNF130 RING domain (UniProt Q86XS8); chain DKETDPDFDHCAVCIESYKQNDVVRILPCKHVFHKSCVDPWLSEHCTCPMCKLNILKALGIV
B5: MDM2 RING domain (UniProt Q00987); chain TQDKEESVESSLPLNAIEPCVICQGRPKNGCIVHGKTGHLMACFTCAKKLKKRNKPCPVCRQPIQMIVLTYFP
B6: SHPRH RING domain (UniProt Q149N8); chain KTSGGVNPEPCPICARQLGKQWAVLTCGHCFCNECISIIIEQYSVGSHRSSIKCAICRQTTSHKEISY
B7: MARCHF2 RING domain (UniProt Q9P0N8); chain RLLSTVIRALDTPSDGPFCRICHEGANGECLLSPCGCTGTLGAVHKSCLEKWLSSSNTSYCELCHTEFAVEKRPRPLTEWL
B8: RFPL3 RING domain (UniProt O75679); chain MAALFQEASSCPVCSDYLEKPMSLECGCTVCLKCINSLQKEPHGEDLLCCCCSMVSQRNKIRP
B9: NHLRC1 RING domain (UniProt Q6VVB1); chain MREAEISLLECKVCFEKFGHRQQRRPRNLSCGHVVCLACVAALAHPRTLALECPFCRRACRGCDTSD
Sequence	lacZ reporter activity
B1 (TRIM28 RING domain)	0
PLRRLQEEKLCKICMDRHIAVVFIPCGHLVTCKQCAEAVDRCPMCSAVIDFKQRVF (BIRC8 RING domain (UniProt Q96P09))	0
B2 (PJA2 RING domain)	0
B3 (RNF32 RING domain)	0
EIKDYKARLTCPCCNMRKKDAVLTKCFHVFCFECVKTRYDTRQRKCPKCNAAFGANDFHR (RNF20 RING domain (UniProt Q5VTR2))	0
B4 (RNF130 RING domain)	0
VPADASPDSKCPICLDRFDNVSYLDRCLHKFCFRCVQEWSKNKAECPLCKQPFDSIFHSV (TOPORS RING domain (UniProt Q9NS56))	0
B5 (MDM2 RING domain)	0
SNNDLASLFECPVCFDYVLPPILQCQSGHLVCSNCRPKLTCCPTCRGPLGSIRNLA (SIAH1 RING domain (UniProt Q8IUQ4))	0
B6 (SHPRH RING domain)	0
B7 (MARCHF2 RING domain)	0
B8 (RFPL3 RING domain)	0
B9 (NHLRC1 RING domain)	0

Series 3 — method: RNA Bind-n-Seq; form: RNA; medium: in vitro; tested at: 365 nM; relative to: no-protein control; reading: higher = stronger binding
Target: RNA binding protein fox-1 homolog 2, RRM domain, GST-SBP tag (RBFOX2, Homo sapiens, UniProt O43251-10, residues 100-194)
Notes: natural RNA segment, single round, ends assumed
Shared flanks, not repeated: GGGAGUUCUACAGUCCGACGAUC … UGGAAUUCUCGGGUGCCAA
Construct (chain): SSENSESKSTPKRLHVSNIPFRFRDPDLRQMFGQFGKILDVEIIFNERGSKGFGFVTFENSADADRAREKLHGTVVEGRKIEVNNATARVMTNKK
Oligonucleotide	RBNS enrichment (R)
ACUUAAUGGUGCUUAAAAAUCGGGGCACUUAAAAUAAGUUUACGGCCAAAGGUGCAGCAGUGCUUAUCACAUCCACAUACUAAGAGAUUGGUCUUAGUGCGUUUGUGCCC	0.328
AGAGAUGCCUGUCCUGUGCUUGGAUAGUCAGUCAAUUAUUUGUGUAUGAAACAAUGUACAAAUCAAUGUUUUGAAAAUAAUGAUCUCAGACUUUCUAAGUUAAAUUUUAA	0.73
GGGCUCAGCCUCUCUGCCCACAGAGUGCCCCCACGUGGAACAUUCUGGAGCUGGCCAUCCCAAAUUCAAUCAGUCCAUAGAGACGAACAGAAUGAGACCUUCCGGCCCAA	0.149
CUGGGAGGGGGCCUUCCUCCAGGGAAUGUAACUCUCCCAGGCCCCAGAAUAGCUCCUGGAUCCAAGCCCGGGGCCCGGCCUGGGACACGGCGCUGAGGGUCGGCAGGCUG	0.268
ACUUUUUUAUACACCUGUUCAUUUCUACUUAAAUUAUGGCACAGAUUGAUGCGCACCAGUCUUGAGGAAACGAUCUCCCUAUUCCCUUACCCUGUUACUCAGCCACGCCG	0.811
ACUGAAAAGGUCGUGUAUAGGUUAGAGAUACAGGGAGCCCAUUUUAUAUUUGCAUACCCUUUUAUUUCCAAAACAAAAUGAGCUCUUUUCCCUUGAGACAAUAUCAUUCC	0.435
CAAAUAGGCCUAUGAUUUAGCUGGCAGGCCAGGUUUUCUCAAGAGCAAAAUCACCCUCUGGCCCCUUGGCAGGUAAGGCCUCCCGGUCAGCAUUAUCCUGCCAGACCUCG	0.335
AACAUUUCUGGACAGUACCUGAUUGUAUUUUUUUUUUAAAUAAAAGCACAAGUACUUUUGAGUUUGUAUUUUGCUUUGAAUUGUUGAGUCUGAAUUUCACCAAAGCCAAU	0.483
CAGAGUACCCUUGAGAAUUGAAAUGUAUUUCGAUUAGUUGUCUUUAAUUAGCUAGCUAGAGUCAGUUGAUAUCUCUACCAAGCUGAAGCCUAGUACCUACGAAGCUAUUU	0.349
CGACUCUCCUGCCAGUGUCUUUCAGGAUGUCAACGGGUGGUACGAUUCUGGCAUUUGUUUCUCGCUCACCGUGUGUGGAACACUCAUUCCAUGUAGAGGGUGACGAACUC	0.392
GUAAUGCAGCUUCCACUCCUCUCAUUGGAGGCCCUAUUUGGGAACACUGCAAGCCCUUAAUCAGCCCUCUGUGACAUAGGUAGCAGCCCACGGAGAUCCUAAGCUGGCUG	0.365
CAGAAAAGUGAGUGUACUGGCAGUUAGUGUCACUGCUUUGCACAGUCCCCAUUAAAGGACCCUCCAGAGAGGGACAGUAACUGUGCAUGAGAAGCCGCUCCCAUAAGCCU	5.13

Series 4 — method: protein-binding microarray; form: double-stranded DNA, one strand shown; medium: in vitro; tested at: 250 nM; notes: 60-bp whole probe; with: salmon DNA 0.4 mg/ml; relative to: random background probes; reading: higher = stronger binding; shared flanks, not repeated: GCCTAGCAC … GTCTTGATTCGCTTGACGCTGCTG
Target: Interferon regulatory factor 7, full length, phosphomimetic (IRF7, Homo sapiens, UniProt Q92985, residues 1-503, S101K/S471D/S472D/S475D/S476D/S477D/S483D/S484D/S487D)
UniProt Q92985, sequence (whole entry, unmodified, looked up): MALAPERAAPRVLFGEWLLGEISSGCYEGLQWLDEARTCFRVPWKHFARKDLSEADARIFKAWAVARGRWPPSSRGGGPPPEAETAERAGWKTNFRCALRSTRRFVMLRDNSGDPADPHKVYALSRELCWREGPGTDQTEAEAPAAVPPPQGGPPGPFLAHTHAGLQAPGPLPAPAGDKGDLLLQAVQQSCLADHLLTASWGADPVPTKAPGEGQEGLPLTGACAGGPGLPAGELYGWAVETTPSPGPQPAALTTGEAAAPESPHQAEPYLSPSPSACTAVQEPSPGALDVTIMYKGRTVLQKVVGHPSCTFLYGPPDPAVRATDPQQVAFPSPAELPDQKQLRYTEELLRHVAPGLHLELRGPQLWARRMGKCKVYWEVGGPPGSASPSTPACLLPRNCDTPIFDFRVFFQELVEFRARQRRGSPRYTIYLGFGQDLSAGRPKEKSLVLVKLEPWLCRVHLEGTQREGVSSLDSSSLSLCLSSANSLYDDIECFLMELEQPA
Oligonucleotide	log fluorescence
GACGGTATCGGAACTGGGGACGTGCTA	0.213 z-score
TCAAATCTTTTTCCCTAACTGTGCTAG	1.1 z-score
CTTGCTTCCTAATTCTCTTTGTGCTAG	0.716 z-score
GACGATATCAGACTGTAGACGTGCTAG	-0.0195 z-score
GACGGTTTCGATATCGGGACGTGCTAG	12.1 z-score
TCACCTCTCTTTCCAACACTGTGCTAG	0.871 z-score
TTAGGGCTGCTACTGCTTTAGTGCTAG	-1.09 z-score
GTCGATTTCGGGACTGGAGACGTGCTA	0.71 z-score
TCATCTCTGCCACTCAGACTGTGCTAG	0.363 z-score
AGACCATCCTGTATGGATGTGTGCTAG	-0.156 z-score
ACGAGTTTCTATTTTCTGAAGTGCTAG	8.27 z-score
GACGATATCAGAGTGGAGACGTGCTAG	-0.434 z-score
TTAGAACTGAGTTTCGATAAGTGCTAG	3.08 z-score
TTGGATATCAGACTGGATTAGTGCTAG	-0.324 z-score
GACGGACTGGGGACAGGGGACGTGCTA	-0.209 z-score
TTAGGTTTCGGGACTGGGATAGTGCTA	4 z-score
TCACTCTTCTGGATCTCACTGTGCTAG	0.313 z-score
GACGGTATCGGGTATGGGGACGTGCTA	-0.0768 z-score
CCCACTTTCAGTTCTCCCTTGTGCTAG	2.09 z-score
CTAGGTCTCCTACTGCTTTAGTGCTAG	-0.03 z-score
TTAGGTTCCCTTTTCCTTTTGTGCTAG	4.44 z-score
GACGGTATCGACACTGTGGACGTGCTA	-0.329 z-score
CTGCAGGTAGCAGAGACTTGGTGCTAG	-1.15 z-score

Excerpt of the above (series 4):
Oligonucleotide	log fluorescence
GACGGTTTCGATATCGGGACGTGCTAG	12.1 z-score
TCACCTCTCTTTCCAACACTGTGCTAG	0.871 z-score
TTAGGGCTGCTACTGCTTTAGTGCTAG	-1.09 z-score
GTCGATTTCGGGACTGGAGACGTGCTA	0.71 z-score
TCATCTCTGCCACTCAGACTGTGCTAG	0.363 z-score
